Measured values collected from several papers.
Lines come from different studies, so protocols differ. Several values in a cell are separate wells, animals, samples, runs or records.
Target: Protein kinase C gamma type (PRKCG, Homo sapiens, UniProt P05129)

O=c1c(-c2ccc(Cl)c(CN3CCOCC3)c2)coc2cc(O)ccc12  remaining activity (enzyme activity, inhibitor; 1 µM): 100%
C=CC(=O)Nc1cccc(-c2cnc3[nH]cc(C(=O)NC(C)(C)C)c3n2)c1  inhibition (kinase activity; 0.1 µM): 29% and 32%
C=CC(=O)N1Cc2nc(-c3cc(-c4cc(Cl)cnc4Cl)c(F)cc3F)n(-c3ccncn3)c2C1  inhibition (cell-free assay; 1 µM): 2.3%
O=C(Cc1ccc(OCc2ccccc2)cc1)NC1(C(=O)O)CCN(C(=O)c2ccc(-c3cccc(Cl)c3)cc2)CC1  activity vs control (enzyme activity, inhibitor; 10 µM): 99%
CN1CC[C@@H](COc2cnc(C#N)cc2-c2ccn3nc(NC(=O)C4CC4)cc3c2)C1  inhibition (enzyme activity, inhibitor; 1 µM): -9%
CCn1cc(C(=O)O)c(=O)c2c(N)c(F)c(NC3CCCCC3)cc21  inhibition (kinase activity; 0.1 µM, with: ATP at Km): 16.9%
CN1CCN(Cc2ccc(-c3ccc(CO[C@H]4CCC[C@@H]4NC(=O)c4cc(-c5cnn(C)c5)cnc4N)cc3)cc2)CC1  inhibition (enzyme activity, inhibitor; 0.1 µM): 17%
CNC(=O)C[C@H](Cc1ccc(C#N)cc1)NC(=O)c1cc(-c2ccc(CN[C@H](C)c3ccc(C)cc3)o2)ccc1Cl  activity vs control (enzyme activity, inhibitor; 1 µM): 105%
COc1ccc(NC(=O)Nc2ccc3c(c2)C(=O)N(C(C)CO)CC(C)C(CN(C)Cc2ccc4c(c2)OCO4)O3)cc1 (stereo not shown)  remaining activity (kinase activity, KinaseProfiler; 0.03 µM, species human; baseline: control): 87%
O=C=[N][Ru-4]123([n]4c5ccc(O)cc5c5c6c(c7cc(F)c[n+]1c7c54)C(=O)NC6=O)[S+]1CC[S+]2CC[S+]3CC1 (stereo not shown)  remaining activity (enzyme activity; 100 nM, human enzyme, with: 10 µM ATP; baseline: untreated): 99%
COc1c(OCCCN2CCOCC2)ccc2c1N=C(NC(=O)c1cnc(N)nc1)N1CCN=C21  remaining activity (kinase activity, inhibitor; 1 µM; baseline: untreated control): 103%
Nc1ncc(-c2cc(-c3cnn(CC(F)(F)F)c3)ncc2F)nc1C(=O)NC1CNCC(F)C1 (stereo not shown)  remaining activity (enzyme activity; 1 µM; baseline: DMSO control): 74.6%
NC(=O)[C@@H](O)C[C@H]1CCc2sc3ncnc(O[C@H]4CC[C@H](N5CCOCC5)CC4)c3c21  inhibition (enzyme activity, inhibitor; 10 µM): 1%
COCC12C(=O)NC3C4(C(OC)CC1O)C1CC5(O)C(OC)C(O)C(OC(C)=O)(C1C5OC(=O)c1ccccc1)C3(O)C(OC)C24 (stereo not shown)  remaining activity (kinase activity, inhibitor, ProQinase kinase profiling; 25 µM; baseline: control): 115% and 112%
Cc1cccc(O[C@H]2CCC[C@@H](C(C)CNCc3ccncc3)C2)c1 (relative stereo)  inhibition (enzyme activity; 1 µM): 3%
NC(=O)C[C@H]1CCc2sc3ncnc(O[C@H]4CC[C@H](N5CCOCC5)CC4)c3c21  inhibition (enzyme activity, inhibitor; 10 µM): 6%

A few entries again:
CN1CCN(Cc2ccc(-c3ccc(CO[C@H]4CCC[C@@H]4NC(=O)c4cc(-c5cnn(C)c5)cnc4N)cc3)cc2)CC1  inhibition (enzyme activity, inhibitor; 0.1 µM): 17%
COc1ccc(NC(=O)Nc2ccc3c(c2)C(=O)N(C(C)CO)CC(C)C(CN(C)Cc2ccc4c(c2)OCO4)O3)cc1 (stereo not shown)  remaining activity (kinase activity, KinaseProfiler; 0.03 µM, species human; baseline: control): 87%
